Measurements of several laboratories.
Lines come from different studies, so protocols differ. ± gives the spread as reported.
Chain of UniProt P48736 (whole entry, looked up): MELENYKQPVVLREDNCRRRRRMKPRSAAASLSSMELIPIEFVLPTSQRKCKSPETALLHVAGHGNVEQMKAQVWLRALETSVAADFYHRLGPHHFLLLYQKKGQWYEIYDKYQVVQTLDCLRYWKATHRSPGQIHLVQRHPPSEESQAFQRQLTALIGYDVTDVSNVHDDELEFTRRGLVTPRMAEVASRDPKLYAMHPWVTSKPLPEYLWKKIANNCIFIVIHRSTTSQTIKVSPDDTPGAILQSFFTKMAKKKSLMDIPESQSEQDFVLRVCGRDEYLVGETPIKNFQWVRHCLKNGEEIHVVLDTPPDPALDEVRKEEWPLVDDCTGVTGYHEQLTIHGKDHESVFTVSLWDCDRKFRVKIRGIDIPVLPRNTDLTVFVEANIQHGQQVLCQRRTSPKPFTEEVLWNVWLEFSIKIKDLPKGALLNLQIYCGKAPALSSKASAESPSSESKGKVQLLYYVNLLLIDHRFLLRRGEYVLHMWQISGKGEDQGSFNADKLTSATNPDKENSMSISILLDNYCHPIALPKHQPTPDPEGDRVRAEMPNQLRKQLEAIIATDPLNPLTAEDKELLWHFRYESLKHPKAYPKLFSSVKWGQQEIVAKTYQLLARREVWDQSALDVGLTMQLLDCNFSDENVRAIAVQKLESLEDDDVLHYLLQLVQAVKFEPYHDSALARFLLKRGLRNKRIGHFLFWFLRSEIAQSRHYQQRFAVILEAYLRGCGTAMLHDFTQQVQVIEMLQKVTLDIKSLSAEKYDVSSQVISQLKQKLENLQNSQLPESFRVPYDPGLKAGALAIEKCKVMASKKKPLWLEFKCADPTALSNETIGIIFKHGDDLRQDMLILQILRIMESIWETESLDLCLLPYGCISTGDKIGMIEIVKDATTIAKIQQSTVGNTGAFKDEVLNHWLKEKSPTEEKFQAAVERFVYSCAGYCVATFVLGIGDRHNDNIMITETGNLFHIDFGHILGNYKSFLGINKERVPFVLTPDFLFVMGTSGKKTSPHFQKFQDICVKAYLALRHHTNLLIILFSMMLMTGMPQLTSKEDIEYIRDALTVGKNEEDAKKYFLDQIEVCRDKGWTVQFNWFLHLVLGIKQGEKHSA
Chain of UniProt O35659 (whole entry, looked up): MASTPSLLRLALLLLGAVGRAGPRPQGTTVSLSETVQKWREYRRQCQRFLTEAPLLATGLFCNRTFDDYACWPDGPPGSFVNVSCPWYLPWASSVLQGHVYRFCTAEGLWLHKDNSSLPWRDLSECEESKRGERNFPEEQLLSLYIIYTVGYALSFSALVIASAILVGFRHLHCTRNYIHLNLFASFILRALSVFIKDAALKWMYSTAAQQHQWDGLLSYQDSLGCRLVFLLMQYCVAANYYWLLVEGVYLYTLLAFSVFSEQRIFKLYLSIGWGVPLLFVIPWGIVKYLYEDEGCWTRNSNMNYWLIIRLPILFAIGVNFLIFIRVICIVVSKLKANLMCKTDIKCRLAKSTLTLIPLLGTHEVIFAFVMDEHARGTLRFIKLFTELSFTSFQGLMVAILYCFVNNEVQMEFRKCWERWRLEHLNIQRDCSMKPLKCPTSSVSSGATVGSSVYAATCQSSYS

The IC50 of Cc1cc(C)cc(S(=O)(=O)c2c(C(N)=O)[nH]c3ccc(Cl)cc23)c1 is reported as 18 nM (Gag-Pol polyprotein, reverse transcriptase (gag-pol, Human immunodeficiency virus 1, UniProt P03366); enzyme activity, inhibitor, ELISA).
With C[C@H](Nc1ncnc(N)c1C#N)c1c(-c2ccccc2)[nH]c2c(Cl)cccc2c1=O the IC50 was 101 nM (PIK3CG (Homo sapiens, UniProt P48736); kinase activity, inhibitor).
CCCOC(=O)N1c2cc(CNC)ccc2[C@H](NC(=O)C(=O)Nc2ccc(Cl)c(F)c2)[C@H]1CNC(=N)N has an IC50 of 24 nM (env (Human immunodeficiency virus 1, UniProt Q5G5U7); pseudovirus infection, luciferase reporter; TZM-bl; 48 h).
COCCNc1nc(-c2nccn2C)nc2sc(-c3cccc(OC)c3Cl)c(-c3ccccc3)c12 has an IC50 of 2500 nM (RAC1 (Homo sapiens, UniProt P63000); GTP binding, inhibitor, cell-free GTP competition; added: fluorescent GTP 100 nmol/L).
With O=C(O)c1ccccc1OCc1ccccc1Br the EC50 was 81.3 nM (RAC1 (Homo sapiens, UniProt P63000, Q61L); GTP binding, activator, flow cytometry bead; EDTA buffer, added: 100 nM BODIPY-GTP).
CNCc1ccc2c(c1)N(C(=O)OCc1c(F)c(F)c(F)c(F)c1F)[C@H](CNC(=N)N)[C@H]2NC(=O)C(=O)Nc1ccc(Cl)c(F)c1 has an IC50 of 73 nM (env (Human immunodeficiency virus 1, UniProt Q27Q69); pseudovirus infection, luciferase reporter; TZM-bl; 48 h).
CC(=O)NCCN(CC(=O)NCCN(CC(=O)NCCN(CC(=O)NCCC(N)=O)C(=O)C[C@@H](N)CCCNC(=N)N)C(=O)C[C@@H](N)CCCNC(=N)N)C(=O)C[C@@H](N)Cc1ccccc1 — result for “binding entropy term TΔS°”: -1.89 ± 0.311 kcal/mol (HIV-1 TAR RNA; concentration not given, 25 °C).
CCCC[C@@H]1NC(=O)[C@H](Cc2ccc(O)cc2)NC(=O)[C@@H]2CCCN2C(=O)[C@H](CC(=O)O)NC(=O)[C@H](C)NC(=O)[C@H](Cc2ccccc2)NC(=O)[C@@H]2CSCCC(=O)N3CN(CN(C3)C(=O)CCSC[C@@H](C(=O)N[C@@H](C)C(N)=O)NC1=O)C(=O)CCSC[C@H](NC(C)=O)C(=O)N[C@@H](CC(C)(C)C)C(=O)N1CCC[C@H]1C(=O)N[C@@H](CCC(=O)O)C(=O)N[C@H](CCCCNC(=O)CCc1cn(CCOCCOCCOCCN(CCOCCOCCOCCC(=O)N[C@H]3CSCCC(=O)N4CN5CN(C4)C(=O)CCSC[C@H](NC(=O)[C@@H](CC(=O)O)NC(=O)[C@H](Cc4cccc6ccccc46)NC(=O)[C@@H]4CCCN4C3=O)C(=O)N[C@@H](CCSC)C(=O)N[C@@H](CCCCNC(=N)N)C(=O)N[C@@H](CC(=O)O)C(=O)N[C@@H](Cc3c[nH]c4ccccc34)C(=O)N[C@@H](CO)C(=O)N[C@@H]([C@@H](C)O)C(=O)N3CCC[C@H]3C(=O)N3C[C@H](O)C[C@H]3C(=O)N[C@@H](Cc3c[nH]c4ccccc34)C(=O)N[C@H](C(N)=O)CSCCC5=O)CCOCCOCCOCCn3cc(CCC(=O)NCCCC[C@H]4NC(=O)[C@H](CCC(=O)O)NC(=O)[C@@H]5CCCN5C(=O)[C@H](CC(C)(C)C)NC(=O)[C@@H](NC(C)=O)CSCCC(=O)N5CN6CN(C5)C(=O)CCSC[C@H](NC(=O)[C@H](Cc5ccc(O)cc5)NC(=O)[C@@H]5CCCN5C4=O)C(=O)N[C@@H](Cc4ccccc4)C(=O)N[C@@H](C)C(=O)N[C@@H](CC(=O)O)C(=O)N4CCC[C@H]4C(=O)N[C@@H](Cc4ccc(O)cc4)C(=O)N[C@@H](CCCC)C(=O)N[C@H](C(=O)N[C@@H](C)C(N)=O)CSCCC6=O)nn3)nn1)C(=O)N1CCC[C@H]1C(=O)N[C@@H](Cc1ccc(O)cc1)C(=O)N2 gave a Kd of > 200 nM (Poliovirus receptor (PVR, Homo sapiens, UniProt P15151); SPR).
For CNCc1ccc2c(c1)C[C@H](CNC(=N)N)[C@H]2NC(=O)C(=O)Nc1ccc(Cl)c(F)c1, the IC50 was 130 nM (env (Human immunodeficiency virus 1, UniProt Q5G5U7); pseudovirus infection, luciferase reporter; TZM-bl; 48 h).
The Kd of CC[C@H](C)[C@H](NC(=O)[C@H](Cc1ccccc1)NC(=O)[C@@H]1CCn2cc(nn2)-c2cccc(c2)-c2cn(nn2)CC[C@H](NC(=O)[C@H](CCC(N)=O)NC(=O)[C@H](CCCCN)NC(=O)[C@H](CO)NC(=O)[C@H](CC(C)C)NC(=O)[C@H](CC(=O)O)NC(=O)[C@H](CO)NC(=O)[C@@H](NC(=O)[C@H](Cc2ccccc2)NC(=O)[C@@H](NC(=O)CNC(=O)[C@H](CCC(=O)O)NC(=O)CNC(=O)[C@@H](N)Cc2c[nH]cn2)[C@@H](C)O)[C@@H](C)O)C(=O)N[C@@H](CCC(=O)O)C(=O)N[C@@H](CCC(=O)O)C(=O)N[C@@H](CCC(=O)O)C(=O)N[C@@H](C)C(=O)N[C@@H](C(C)C)C(=O)N[C@@H](CCCNC(=N)N)C(=O)N1)C(=O)N[C@@H](CCC(=O)O)C(=O)N[C@@H](Cc1c[nH]c2ccccc12)C(=O)N[C@@H](CC(C)C)C(=O)N[C@@H](CCCCN)C(=O)N[C@@H](CC(N)=O)C(=O)NCC(=O)NCC(=O)N1CCC[C@H]1C(=O)N[C@@H](CO)C(=O)N[C@@H](CO)C(=O)NCC(=O)N[C@@H](C)C(=O)N1CCC[C@H]1C(=O)N1CCC[C@H]1C(=O)N1CCC[C@H]1C(=O)N[C@@H](CO)C(N)=O is reported as 0.8 nM (Glucagon-like peptide 1 receptor (Mus musculus, UniProt O35659); cell-free assay).
The motility inhibition of F[P-](F)(F)(F)(F)F.OC(Cn1cncn1)(Cn1cc(-[c-]2cccc2)nn1)c1ccc(F)cc1F.[Co+3].c1cc[cH-]c1 (racemic) is reported as 52% (Trichuris muris; Worminator; adult males and females; 100 µM, day 3).
Under “binding entropy term TΔS°”, CC(=O)NCCN(CCC(=O)NCCN(CCC(=O)NCCN(CCC(=O)NCCC(N)=O)C(=O)[C@@H](N)Cc1ccccc1)C(=O)[C@@H](N)CCCNC(=N)N)C(=O)[C@@H](N)CCCNC(=N)N is recorded as -5.02 ± 0.12 kcal/mol (HIV-1 TAR RNA; concentration not given, 25 °C).
With Cc1c(S(=O)(=O)N2CCc3n[nH]cc3C2)cc(C(=O)NCc2cccc3occc23)n1C the IC50 was 0.9 nM (Replicase polyprotein 1ab, nsp14 (rep, Severe acute respiratory syndrome coronavirus 2, UniProt P0DTD1); inhibitor).

A few entries again:
CC(=O)NCCN(CC(=O)NCCN(CC(=O)NCCN(CC(=O)NCCC(N)=O)C(=O)C[C@@H](N)CCCNC(=N)N)C(=O)C[C@@H](N)CCCNC(=N)N)C(=O)C[C@@H](N)Cc1ccccc1 — result for “binding entropy term TΔS°”: -1.89 ± 0.311 kcal/mol (HIV-1 TAR RNA; concentration not given, 25 °C).
